# Results of several laboratories.
# Each numbered part is a random draw from the data of one study; scales do not carry over between parts. Positions count from the first letter of the parent shown.

# Series 1
# Target: Sal-like protein 4, full length isoform A (SALL4, Homo sapiens, UniProt Q9UJQ4, residues 1-1053)
# UniProt Q9UJQ4, sequence (whole entry, looked up): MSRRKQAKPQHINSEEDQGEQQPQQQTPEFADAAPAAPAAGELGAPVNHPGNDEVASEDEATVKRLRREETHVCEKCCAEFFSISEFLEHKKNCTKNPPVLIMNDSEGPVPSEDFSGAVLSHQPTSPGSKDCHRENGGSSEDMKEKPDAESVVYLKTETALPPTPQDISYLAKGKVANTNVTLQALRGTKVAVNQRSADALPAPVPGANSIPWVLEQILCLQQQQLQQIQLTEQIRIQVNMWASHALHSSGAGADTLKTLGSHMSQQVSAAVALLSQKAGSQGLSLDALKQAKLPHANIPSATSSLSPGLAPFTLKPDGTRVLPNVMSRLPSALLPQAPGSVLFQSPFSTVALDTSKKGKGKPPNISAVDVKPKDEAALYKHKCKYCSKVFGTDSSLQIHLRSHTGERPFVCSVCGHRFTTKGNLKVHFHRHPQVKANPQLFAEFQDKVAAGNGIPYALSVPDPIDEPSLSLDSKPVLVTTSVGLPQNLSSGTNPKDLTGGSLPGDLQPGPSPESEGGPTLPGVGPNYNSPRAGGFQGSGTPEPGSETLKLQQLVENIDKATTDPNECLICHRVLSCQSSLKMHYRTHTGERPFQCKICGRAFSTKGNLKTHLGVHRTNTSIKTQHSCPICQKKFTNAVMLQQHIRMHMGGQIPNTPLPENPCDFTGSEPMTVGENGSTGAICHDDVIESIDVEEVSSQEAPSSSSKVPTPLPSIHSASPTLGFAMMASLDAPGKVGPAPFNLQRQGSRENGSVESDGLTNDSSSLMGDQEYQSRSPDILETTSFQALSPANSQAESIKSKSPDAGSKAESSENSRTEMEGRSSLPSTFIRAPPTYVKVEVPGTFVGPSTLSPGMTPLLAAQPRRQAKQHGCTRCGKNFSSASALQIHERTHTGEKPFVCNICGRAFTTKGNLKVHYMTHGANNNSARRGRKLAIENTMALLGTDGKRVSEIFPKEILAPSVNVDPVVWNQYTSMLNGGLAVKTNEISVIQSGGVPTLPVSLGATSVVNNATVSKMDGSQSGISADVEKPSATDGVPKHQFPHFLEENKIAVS
# Method: universal PBM
# Form: double-stranded DNA, one strand shown
# Medium: in vitro
# Concentration: 600 nM
# Setting: 8-mer, flanks averaged, mean of replicates
# Reading: higher = stronger binding
Sequence,E-score
ACCCGTTA,0.0586
GGACGCCC,-0.316
CGCGACTC,-0.177
AAAAGTAC,0.191
CGCGCCAG,-0.225
AGACCGAA,-0.035
TCGCGTCA,0.00578
AGTTTTTC,0.141

# Series 2
# Target: MAFF, bZIP domain (human)
# Method: DHFR protein complementation
# Medium: yeast
# Setting: single substitutions, most at no-binding floor
# Baseline: wild-type JUN-FOS pair
# Reading: higher = stronger binding
# Starting sequence: JUN, bZIP domain (human); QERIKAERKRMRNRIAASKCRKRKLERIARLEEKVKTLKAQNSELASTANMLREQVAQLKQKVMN; partner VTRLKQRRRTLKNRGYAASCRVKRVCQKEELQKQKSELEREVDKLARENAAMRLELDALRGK
Change,binding fitness
A40L,-1.47 natural log
T48F,-1.46 natural log
A29Y,-1.44 natural log
E33C,-1.52 natural log
T37A,-1.32 natural log
E32L,-1.47 natural log
I28T,-1.45 natural log
R53I,-1.55 natural log

# Series 3
# Target: Ras GTPase-activating protein-binding protein 1, full length (G3BP1, Homo sapiens, UniProt Q13283)
# UniProt Q13283, sequence (whole entry, looked up): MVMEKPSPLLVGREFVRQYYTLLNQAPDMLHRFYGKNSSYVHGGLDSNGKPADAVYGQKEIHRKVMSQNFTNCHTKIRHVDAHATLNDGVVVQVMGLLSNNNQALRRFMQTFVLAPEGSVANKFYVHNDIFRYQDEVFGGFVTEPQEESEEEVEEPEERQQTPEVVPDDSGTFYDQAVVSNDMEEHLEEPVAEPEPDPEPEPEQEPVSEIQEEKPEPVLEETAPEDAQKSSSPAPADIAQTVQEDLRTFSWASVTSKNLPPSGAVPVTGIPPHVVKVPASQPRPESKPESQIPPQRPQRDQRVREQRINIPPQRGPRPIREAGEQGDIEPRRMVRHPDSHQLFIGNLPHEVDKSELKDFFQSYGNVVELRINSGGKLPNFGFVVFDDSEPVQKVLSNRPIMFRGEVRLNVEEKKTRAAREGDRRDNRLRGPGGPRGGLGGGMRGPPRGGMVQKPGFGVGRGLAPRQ
# Method: RNA Bind-n-Seq
# Form: RNA
# Medium: in vitro
# Concentration: 200 nM
# Setting: whole 134-nt RNA, ends assumed
# Together with: 150 mM LiCl
# Baseline: input library
# Reading: higher = stronger binding
# Each molecule: 7-deaza-guanosine replaces G
# Shared flanks, not repeated: GGGAGUUCUACAGUCCGACGAUC … UGGAAUUCUCGGGUGUCAAGG
Sequence,log2 enrichment
UGCAGUGAUGGUCAUUGUCCUCCAGAGCAGUGAUGGAGGAAAUACCAGCCCAGGAAGCAGCAGGGUCACCAAGGGUCCAGUUUCAGUCUU,-0.399
GCAGGAAGUAAAAACAAAUCGAAAUGCUUCGGAUAGUGGCAGGGGUGGGGGUUGCUAAGGAAAGGGUGGGAUGGGAGUGGGUAAAGAGUU,0.275
UCCUGUGCUACACAUCGUAUGUACCGAAUCGGGAAAAAAGGGAAAAAAGGAAAAAAGGGGAAAGUAUUAUGUUACGCCGUUCGGAUCUGC,-0.432
UCUAUCCUGUCCCUCCACCCCACCCUCCACCUCAAUCCCCUCCCAUCUUCCCCAGACCUACCUCACCUACUAGGACCUGAGGCAGCUCCU,-0.0622
UGGCAGAGAAAUUGCAGCUGCAGGAGCAGCUCCAGGCAGAAACCGAGCUGUGUGCCGAGGCUGAGGAGCUCCGGGCCCGCCUGACCGCCA,-0.763
GAAGGAAGUAAAAACAAAUGGAAAUGCUUCGGAUAGUGGCAGGGGUGGGGGUUGCUAAGGAAAGGGUGGGAUGGGAGUGGGUAAAGAGUU,-0.15
GUCCUGUGCUACACAUCGUAUGUACCGAAUCGGGUUUUUUUGGGUUUUUGGGUUUGGGAAAGUAUUAUGUUACGCCGUUCGGAUCUGCAC,0.305
UGGGAGGUGGAUUUUGUUUAUUUUUUUAGCUCAUUUCCAGGGGUGGGAAUUUUUUUUUAAUAUGUGUCAUGAAUAAAGUUGUUUUUGGAA,-0.733

# Other studies, line by line
# Starting sequence: viral docking peptide; KGVKRKLFAEDSS; partner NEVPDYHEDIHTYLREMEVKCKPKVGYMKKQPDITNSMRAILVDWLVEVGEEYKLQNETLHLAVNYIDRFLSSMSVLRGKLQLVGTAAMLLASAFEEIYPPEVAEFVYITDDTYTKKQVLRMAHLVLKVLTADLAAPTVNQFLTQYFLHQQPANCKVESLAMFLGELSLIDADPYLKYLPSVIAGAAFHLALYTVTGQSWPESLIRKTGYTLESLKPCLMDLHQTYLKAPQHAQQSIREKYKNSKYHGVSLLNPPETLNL
Change,target,assay,system,conditions,scale,measurement,value
K6L,"CCNA2, cyclin fold, Cln2 fusion (human)","yeast growth competition, sequencing",yeast,strong parent motif,"baseline: not given, higher = stronger binding",normalised enrichment score,4.25

# Some of these lines once more (series 2):
Change,binding fitness
R53I,-1.55 natural log
A40L,-1.47 natural log
A29Y,-1.44 natural log
E33C,-1.52 natural log
